Measurements of several laboratories.
Lines come from different studies, so protocols differ. Values joined by “and” are separate records of one study, mostly repeats; a detail may differ. ± marks the error that the study gave.
Ppara F272I: Peroxisome proliferator-activated receptor alpha (Ppara, Mus musculus, UniProt P23204, F272I)
Chain of UniProt P23204 (whole entry, unmodified, looked up): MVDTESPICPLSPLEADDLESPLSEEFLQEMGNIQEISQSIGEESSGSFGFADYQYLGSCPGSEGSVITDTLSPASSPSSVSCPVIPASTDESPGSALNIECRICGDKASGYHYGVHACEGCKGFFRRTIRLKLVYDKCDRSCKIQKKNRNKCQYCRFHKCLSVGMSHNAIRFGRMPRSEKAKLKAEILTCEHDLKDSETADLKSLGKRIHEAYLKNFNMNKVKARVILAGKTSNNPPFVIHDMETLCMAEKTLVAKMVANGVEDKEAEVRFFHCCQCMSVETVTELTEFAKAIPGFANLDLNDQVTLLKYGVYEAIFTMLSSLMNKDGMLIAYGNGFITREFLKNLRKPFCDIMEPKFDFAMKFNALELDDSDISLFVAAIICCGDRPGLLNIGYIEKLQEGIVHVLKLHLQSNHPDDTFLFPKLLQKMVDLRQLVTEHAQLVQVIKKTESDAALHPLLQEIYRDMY
PTR2: Peptide transporter PTR2 (PTR2, Saccharomyces cerevisiae, UniProt P32901)
Chain of UniProt P32901 (whole entry, looked up): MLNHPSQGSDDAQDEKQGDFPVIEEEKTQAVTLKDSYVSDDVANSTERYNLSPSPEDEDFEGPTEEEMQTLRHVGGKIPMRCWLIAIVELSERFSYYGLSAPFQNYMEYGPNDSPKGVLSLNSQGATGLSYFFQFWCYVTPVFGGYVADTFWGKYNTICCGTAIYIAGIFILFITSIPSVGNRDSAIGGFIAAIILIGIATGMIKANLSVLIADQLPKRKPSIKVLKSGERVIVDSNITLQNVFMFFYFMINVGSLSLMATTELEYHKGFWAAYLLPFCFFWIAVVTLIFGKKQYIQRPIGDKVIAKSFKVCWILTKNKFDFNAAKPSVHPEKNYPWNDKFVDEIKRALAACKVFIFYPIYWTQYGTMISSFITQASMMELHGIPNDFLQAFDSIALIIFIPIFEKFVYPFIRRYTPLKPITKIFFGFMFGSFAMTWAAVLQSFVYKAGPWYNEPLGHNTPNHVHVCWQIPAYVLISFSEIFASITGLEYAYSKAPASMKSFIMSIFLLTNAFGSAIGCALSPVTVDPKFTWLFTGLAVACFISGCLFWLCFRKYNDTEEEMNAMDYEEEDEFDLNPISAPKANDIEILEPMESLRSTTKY
APP Aβ aggregates: Amyloid-beta precursor protein, Aβ aggregates (APP, Homo sapiens, UniProt P05067)
Chain of UniProt P05067 (whole entry, looked up): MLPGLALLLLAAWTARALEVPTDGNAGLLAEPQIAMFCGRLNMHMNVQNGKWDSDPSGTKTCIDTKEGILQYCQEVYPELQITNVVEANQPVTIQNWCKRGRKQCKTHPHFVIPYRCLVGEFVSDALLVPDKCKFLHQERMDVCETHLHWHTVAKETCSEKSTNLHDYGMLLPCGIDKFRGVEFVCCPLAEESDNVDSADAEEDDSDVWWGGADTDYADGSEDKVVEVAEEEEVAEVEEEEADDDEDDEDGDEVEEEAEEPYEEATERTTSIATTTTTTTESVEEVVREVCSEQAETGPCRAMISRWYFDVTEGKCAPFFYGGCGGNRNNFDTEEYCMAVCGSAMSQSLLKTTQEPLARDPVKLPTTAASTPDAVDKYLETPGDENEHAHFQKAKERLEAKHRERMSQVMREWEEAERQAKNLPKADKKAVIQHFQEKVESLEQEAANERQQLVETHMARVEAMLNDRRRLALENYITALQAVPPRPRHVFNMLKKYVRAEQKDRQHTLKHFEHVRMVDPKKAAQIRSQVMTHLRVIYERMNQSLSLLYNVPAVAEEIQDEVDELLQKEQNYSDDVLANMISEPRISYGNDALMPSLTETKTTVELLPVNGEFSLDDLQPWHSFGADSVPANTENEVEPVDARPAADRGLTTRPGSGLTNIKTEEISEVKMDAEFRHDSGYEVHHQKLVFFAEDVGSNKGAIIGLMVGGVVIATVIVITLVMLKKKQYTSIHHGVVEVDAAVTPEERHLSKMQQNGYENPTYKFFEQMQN
EZH1 in PRC2 complex: Histone-lysine N-methyltransferase EZH1, in PRC2 complex (EZH1, Homo sapiens, UniProt Q92800)
Chain of UniProt Q9PHN5 (whole entry, looked up): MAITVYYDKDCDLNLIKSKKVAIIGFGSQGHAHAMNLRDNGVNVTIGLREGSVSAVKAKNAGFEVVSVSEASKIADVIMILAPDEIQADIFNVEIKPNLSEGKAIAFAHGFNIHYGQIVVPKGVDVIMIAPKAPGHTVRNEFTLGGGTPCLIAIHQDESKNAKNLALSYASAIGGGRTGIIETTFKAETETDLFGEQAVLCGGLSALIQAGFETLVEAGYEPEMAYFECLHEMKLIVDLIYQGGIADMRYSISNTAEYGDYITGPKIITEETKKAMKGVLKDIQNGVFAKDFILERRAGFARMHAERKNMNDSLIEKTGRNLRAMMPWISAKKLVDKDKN
Chain of UniProt Q92800 (whole entry, looked up): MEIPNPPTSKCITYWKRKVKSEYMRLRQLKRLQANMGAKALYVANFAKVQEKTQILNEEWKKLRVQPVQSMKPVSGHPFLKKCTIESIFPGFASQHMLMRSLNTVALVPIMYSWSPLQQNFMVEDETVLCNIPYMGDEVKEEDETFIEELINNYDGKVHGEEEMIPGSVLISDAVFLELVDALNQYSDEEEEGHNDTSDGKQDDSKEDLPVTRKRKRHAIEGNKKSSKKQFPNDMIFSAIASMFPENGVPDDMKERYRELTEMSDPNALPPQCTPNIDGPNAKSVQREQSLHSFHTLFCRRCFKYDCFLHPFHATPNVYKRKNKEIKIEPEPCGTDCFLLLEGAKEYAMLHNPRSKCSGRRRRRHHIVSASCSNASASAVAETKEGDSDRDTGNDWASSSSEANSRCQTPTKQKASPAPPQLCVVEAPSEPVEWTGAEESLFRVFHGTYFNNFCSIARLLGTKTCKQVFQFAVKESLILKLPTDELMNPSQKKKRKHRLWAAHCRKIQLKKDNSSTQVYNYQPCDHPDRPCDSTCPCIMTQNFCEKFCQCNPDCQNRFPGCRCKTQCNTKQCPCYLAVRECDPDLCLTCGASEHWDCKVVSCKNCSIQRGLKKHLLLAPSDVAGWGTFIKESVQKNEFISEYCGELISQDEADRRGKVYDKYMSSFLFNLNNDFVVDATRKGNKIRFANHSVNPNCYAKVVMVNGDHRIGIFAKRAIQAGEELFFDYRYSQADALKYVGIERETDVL
Chain of UniProt O15244 (whole entry, looked up): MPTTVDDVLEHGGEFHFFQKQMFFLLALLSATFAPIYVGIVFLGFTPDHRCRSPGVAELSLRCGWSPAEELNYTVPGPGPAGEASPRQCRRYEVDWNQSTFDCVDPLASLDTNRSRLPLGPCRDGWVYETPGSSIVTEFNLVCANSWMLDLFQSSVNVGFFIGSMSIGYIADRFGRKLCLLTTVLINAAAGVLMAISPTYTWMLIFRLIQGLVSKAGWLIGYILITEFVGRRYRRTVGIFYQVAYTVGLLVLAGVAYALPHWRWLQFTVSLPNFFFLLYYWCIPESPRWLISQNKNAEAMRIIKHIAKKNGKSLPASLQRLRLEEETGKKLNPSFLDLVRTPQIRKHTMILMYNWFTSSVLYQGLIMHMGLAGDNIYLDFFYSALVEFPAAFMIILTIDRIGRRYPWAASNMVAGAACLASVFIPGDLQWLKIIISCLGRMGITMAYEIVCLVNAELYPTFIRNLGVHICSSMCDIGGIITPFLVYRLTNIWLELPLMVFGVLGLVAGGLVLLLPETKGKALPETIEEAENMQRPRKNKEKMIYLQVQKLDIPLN
Chain of UniProt Q9Y6I4 (whole entry, looked up): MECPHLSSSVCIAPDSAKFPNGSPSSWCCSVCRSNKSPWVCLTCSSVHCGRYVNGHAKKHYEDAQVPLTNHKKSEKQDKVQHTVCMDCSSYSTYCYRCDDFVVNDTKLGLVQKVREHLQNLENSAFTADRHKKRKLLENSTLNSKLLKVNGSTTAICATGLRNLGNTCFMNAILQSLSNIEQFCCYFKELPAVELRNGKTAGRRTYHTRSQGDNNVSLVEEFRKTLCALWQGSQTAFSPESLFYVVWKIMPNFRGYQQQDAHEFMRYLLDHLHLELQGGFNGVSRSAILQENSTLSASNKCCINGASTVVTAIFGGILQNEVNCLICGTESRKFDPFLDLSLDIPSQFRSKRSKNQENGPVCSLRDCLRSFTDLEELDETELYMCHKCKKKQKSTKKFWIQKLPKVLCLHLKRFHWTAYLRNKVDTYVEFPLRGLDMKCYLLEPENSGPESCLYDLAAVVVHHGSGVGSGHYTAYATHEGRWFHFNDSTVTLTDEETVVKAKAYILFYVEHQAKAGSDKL
Chain of UniProt P27815 (whole entry, looked up): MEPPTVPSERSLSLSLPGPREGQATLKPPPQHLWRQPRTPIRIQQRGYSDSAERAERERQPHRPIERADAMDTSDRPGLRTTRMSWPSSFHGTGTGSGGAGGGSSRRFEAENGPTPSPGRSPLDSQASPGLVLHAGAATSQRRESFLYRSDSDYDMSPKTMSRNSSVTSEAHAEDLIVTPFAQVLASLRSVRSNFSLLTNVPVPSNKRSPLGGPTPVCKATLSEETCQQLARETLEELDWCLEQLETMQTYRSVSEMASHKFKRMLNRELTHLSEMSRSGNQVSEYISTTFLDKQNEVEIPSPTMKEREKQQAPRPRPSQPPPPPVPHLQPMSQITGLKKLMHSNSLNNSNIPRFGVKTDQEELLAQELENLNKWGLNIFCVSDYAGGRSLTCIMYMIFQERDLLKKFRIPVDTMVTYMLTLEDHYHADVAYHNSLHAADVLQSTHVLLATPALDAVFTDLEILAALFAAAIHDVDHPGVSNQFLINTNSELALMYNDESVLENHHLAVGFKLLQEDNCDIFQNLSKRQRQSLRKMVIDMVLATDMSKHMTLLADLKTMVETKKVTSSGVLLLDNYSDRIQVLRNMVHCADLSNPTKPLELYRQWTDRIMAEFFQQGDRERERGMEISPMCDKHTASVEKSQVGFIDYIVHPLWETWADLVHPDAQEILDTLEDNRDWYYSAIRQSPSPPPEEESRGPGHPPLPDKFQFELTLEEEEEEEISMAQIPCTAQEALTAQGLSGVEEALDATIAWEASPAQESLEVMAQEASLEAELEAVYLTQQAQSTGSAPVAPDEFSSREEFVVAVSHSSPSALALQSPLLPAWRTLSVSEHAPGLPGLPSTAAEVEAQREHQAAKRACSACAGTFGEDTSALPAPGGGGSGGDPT

SMILES	target or system	assay	test system	conditions	endpoint	result
OC[C@H]1OC(O)[C@H](O)[C@@H](O)[C@@H]1O (stereo partly shown)	Hexokinase-3 (HK3, Homo sapiens, UniProt P52790)	substrate inhibition	–	added: ATP 2 mM, sub-saturating	Ki	3400 ± 100 µM
CCCCCC/C=C\CCCCCCCC(=O)O	Ppara F272I	–	–	–	Ki	0.022 ± 0.003 µM
C[C@H](N)C(=O)N[C@@H](C)P(=O)(O)O	PTR2	competitive uptake, fluorescence	Saccharomyces cerevisiae expressing PTR2	–	Ki	920 µM
CCCCCC/C=C\CCCCCCCC(=O)SCCNC(=O)CCNC(=O)[C@H](O)C(C)(C)COP(=O)(O)OP(=O)(O)OC[C@H]1O[C@@H](n2cnc3c(N)ncnc32)[C@H](O)[C@@H]1OP(=O)(O)O	Ppara F272I	–	–	–	Ki	0.028 ± 0.003 µM
Cc1sc2ncn(CC(=O)O)c(=O)c2c1C	Ubiquitin carboxyl-terminal hydrolase 3, ZnF-UBD domain (USP3, Homo sapiens, UniProt Q9Y6I4)	–	–	–	Kd	290 µM
COc1ccc(C(=O)Nc2ccc(N3C4CCC3CN(c3ccccn3)C4)cn2)cc1	APP Aβ aggregates	[3H]PiB competition binding, measured: amyloid-beta	Alzheimer's disease brain homogenate	added: [3H]PiB	Ki	> 1 µM
CC/C=C\C/C=C\C/C=C\C/C=C\C/C=C\C/C=C\CCC(=O)O	Ppara F272I	–	–	–	Ki	0.017 ± 0.002 µM
O=C(Nc1ccc(C2CCCCC2)cc1)c1cn[nH]c1	–	–	human liver microsomes	1 µM, without NADPH	hepatic clearance	3.9 mL/min/kg
O=c1[nH]c2nc(-c3ccccc3)sc2c(=O)n1O	Ketol-acid reductoisomerase (NADP(+)) (ilvC, Campylobacter jejuni subsp. jejuni serotype O:2, UniProt Q9PHN5)	–	–	pre-incubation 3 h without NADPH, added: NADPH 200 µM, AL 1 mM	Ki	0.014 µM and 0.0142 µM
O=c1ccn([C@@H]2O[C@H](COP(=O)(O)OP(=O)(O)O[C@H]3OC[C@@H](O)[C@H](O)[C@H]3O)[C@@H](O)[C@H]2O)c(=O)[nH]1	UGDH (Homo sapiens, UniProt O60701, A104G)	inhibitor, steady-state kinetics	–	–	Ki	0.19 ± 0.2 µM
N[C@@H](CS)C(=O)O	Collagen-like surface protein SclA (Enterococcus faecalis, UniProt Q831E3)	selenide production, competitive inhibitor	–	added: pyruvate 5 mM	Ki	550 ± 90 µM
COc1ccc(C(=O)Nc2ccc(N3C4CCC3CN(c3cnc5ccccc5c3)C4)cc2)cc1	APP Aβ aggregates	[3H]PiB competition binding, measured: amyloid-beta	Alzheimer's disease brain homogenate	added: [3H]PiB	Ki	> 1 µM
Oc1ccc(N=Nc2ccc(-c3nc4ccccc4s3)cc2)c(O)c1	Amyloid-beta precursor protein, Aβ40 fibrils (APP, Homo sapiens, UniProt P05067)	binding to Aβ fibrils, thioflavin T competition	–	Aβ 5 µM, added: ThT 2 µM	Ki	0.21 µM
C[C@H](NC(=O)[C@@H](N)Cc1c[nH]c2ccccc12)C(=O)O	PTR2	–	–	–	Ki	28 µM
CCCCCCCCCCCCCCCC(=O)O	Ppara F272I	–	–	–	Ki	0.019 ± 0.002 µM
COc1ccc(C(=O)Nc2ccc(N3CCN(c4ccccn4)CC3)cn2)cc1	APP Aβ aggregates	[3H]PiB competition binding, measured: amyloid-beta	Alzheimer's disease brain homogenate	added: [3H]PiB	Ki	0.0431 ± 0.0038 µM
Cc1ccc([C@H]2C[C@@H]2COc2cc(NCc3nnc(C)s3)nc(C)n2)nc1	3',5'-cyclic-AMP phosphodiesterase 4A, isoform PDE4A1 (PDE4A, Homo sapiens, UniProt P27815)	enzyme activity, inhibitor, IMAP fluorescence polarization	–	isoform PDE4A1, added: cAMP substrate	Ki	19.1 µM
COc1cc(C)[nH]c(=O)c1CN1CCc2c(Cl)cc([C@H](OC)C3COC3)c(Cl)c2C1=O	EZH1 in PRC2 complex	enzyme activity, inhibitor	–	added: activator peptide	Ki	0.008 µM
O=C(Nc1ccc([C@H]2[C@@H](F)[C@@H](F)C[C@@H](F)[C@H]2F)cc1)c1cn[nH]c1	–	–	mouse liver microsomes	1 µM	hepatic clearance	82 mL/min/kg
CCc1nc(N)nc(N)c1-c1ccc(Cl)cc1	SLC22A2 (Homo sapiens, UniProt O15244)	inhibitor	–	–	Ki	1.4 µM
COc1ccc(C(=O)Nc2ccc(N3CCCN(c4ccccn4)CC3)cc2)cc1	APP Aβ aggregates	[3H]PiB competition binding, measured: amyloid-beta	Alzheimer's disease brain homogenate	added: [3H]PiB	Ki	> 1 µM
CC[C@H](C)n1cc(C)c2c(C(=O)NCc3c(C)cc(C)[nH]c3=O)cc(-c3ccc(N4CCNCC4)nc3)cc21	EZH1 in PRC2 complex	enzyme activity, inhibitor	–	added: activator peptide	Ki	0.03 µM

For quick reference, copied from above:
SMILES	target or system	assay	test system	conditions	endpoint	result
CCCCCCCCCCCCCCCC(=O)O	Ppara F272I	–	–	–	Ki	0.019 ± 0.002 µM
COc1ccc(C(=O)Nc2ccc(N3CCN(c4ccccn4)CC3)cn2)cc1	APP Aβ aggregates	[3H]PiB competition binding, measured: amyloid-beta	Alzheimer's disease brain homogenate	added: [3H]PiB	Ki	0.0431 ± 0.0038 µM
